Published values from different studies.
Compare with care: the assays were run in different laboratories.
Potassium/sodium hyperpolarization-activated cyclic nucleotide-gated channel 1: Potassium/sodium hyperpolarization-activated cyclic nucleotide-gated channel 1 (Homo sapiens, UniProt O60741)
UniProt O60741, sequence (whole entry, looked up): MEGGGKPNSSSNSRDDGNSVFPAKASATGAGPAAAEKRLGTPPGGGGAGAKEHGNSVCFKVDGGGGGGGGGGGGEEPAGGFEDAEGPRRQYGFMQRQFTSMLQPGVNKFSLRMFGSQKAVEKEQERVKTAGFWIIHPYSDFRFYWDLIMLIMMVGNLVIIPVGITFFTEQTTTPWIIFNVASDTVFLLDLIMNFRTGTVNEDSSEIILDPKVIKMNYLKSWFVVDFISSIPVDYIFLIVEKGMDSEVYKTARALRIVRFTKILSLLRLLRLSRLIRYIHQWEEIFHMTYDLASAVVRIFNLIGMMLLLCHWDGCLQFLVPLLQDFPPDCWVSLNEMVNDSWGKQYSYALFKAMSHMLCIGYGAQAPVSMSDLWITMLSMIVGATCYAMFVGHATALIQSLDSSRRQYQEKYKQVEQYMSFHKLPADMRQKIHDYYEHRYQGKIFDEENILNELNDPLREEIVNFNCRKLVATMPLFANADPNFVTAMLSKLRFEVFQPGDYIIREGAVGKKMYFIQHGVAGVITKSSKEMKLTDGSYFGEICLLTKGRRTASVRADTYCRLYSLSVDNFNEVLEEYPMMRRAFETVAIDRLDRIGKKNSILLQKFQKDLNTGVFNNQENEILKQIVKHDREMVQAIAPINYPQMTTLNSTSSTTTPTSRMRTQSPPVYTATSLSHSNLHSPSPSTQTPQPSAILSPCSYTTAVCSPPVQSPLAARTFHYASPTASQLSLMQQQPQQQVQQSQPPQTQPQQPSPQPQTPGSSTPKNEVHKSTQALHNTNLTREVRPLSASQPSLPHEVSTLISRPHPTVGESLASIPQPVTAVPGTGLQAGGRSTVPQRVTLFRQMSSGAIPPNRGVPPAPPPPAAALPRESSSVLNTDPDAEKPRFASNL
4'-phosphopantetheinyl transferase PptT: 4'-phosphopantetheinyl transferase PptT (Mycobacterium tuberculosis, UniProt O33336)
UniProt O33336, sequence (whole entry, looked up): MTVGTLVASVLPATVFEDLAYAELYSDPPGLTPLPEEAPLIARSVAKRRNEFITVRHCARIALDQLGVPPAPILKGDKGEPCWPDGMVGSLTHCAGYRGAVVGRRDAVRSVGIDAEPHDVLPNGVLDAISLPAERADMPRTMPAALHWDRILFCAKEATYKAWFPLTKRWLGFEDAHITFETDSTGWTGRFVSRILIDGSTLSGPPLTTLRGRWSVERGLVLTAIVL
UniProt Q13555, sequence (whole entry, looked up): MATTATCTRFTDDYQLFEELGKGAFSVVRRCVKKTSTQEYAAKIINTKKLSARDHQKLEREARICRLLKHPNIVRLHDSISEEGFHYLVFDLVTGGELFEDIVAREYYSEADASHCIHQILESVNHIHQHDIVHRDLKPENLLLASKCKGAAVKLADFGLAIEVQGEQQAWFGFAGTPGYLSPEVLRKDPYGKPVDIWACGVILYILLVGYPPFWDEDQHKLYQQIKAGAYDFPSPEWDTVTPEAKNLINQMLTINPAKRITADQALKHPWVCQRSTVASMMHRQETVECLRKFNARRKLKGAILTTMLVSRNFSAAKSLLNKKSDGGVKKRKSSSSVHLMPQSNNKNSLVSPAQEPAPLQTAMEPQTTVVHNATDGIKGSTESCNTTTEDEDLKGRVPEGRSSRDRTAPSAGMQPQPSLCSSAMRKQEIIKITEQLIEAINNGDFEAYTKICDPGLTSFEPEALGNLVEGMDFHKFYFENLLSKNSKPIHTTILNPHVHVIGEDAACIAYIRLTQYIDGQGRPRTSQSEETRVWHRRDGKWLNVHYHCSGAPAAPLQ
UniProt Q99755, sequence (whole entry, looked up): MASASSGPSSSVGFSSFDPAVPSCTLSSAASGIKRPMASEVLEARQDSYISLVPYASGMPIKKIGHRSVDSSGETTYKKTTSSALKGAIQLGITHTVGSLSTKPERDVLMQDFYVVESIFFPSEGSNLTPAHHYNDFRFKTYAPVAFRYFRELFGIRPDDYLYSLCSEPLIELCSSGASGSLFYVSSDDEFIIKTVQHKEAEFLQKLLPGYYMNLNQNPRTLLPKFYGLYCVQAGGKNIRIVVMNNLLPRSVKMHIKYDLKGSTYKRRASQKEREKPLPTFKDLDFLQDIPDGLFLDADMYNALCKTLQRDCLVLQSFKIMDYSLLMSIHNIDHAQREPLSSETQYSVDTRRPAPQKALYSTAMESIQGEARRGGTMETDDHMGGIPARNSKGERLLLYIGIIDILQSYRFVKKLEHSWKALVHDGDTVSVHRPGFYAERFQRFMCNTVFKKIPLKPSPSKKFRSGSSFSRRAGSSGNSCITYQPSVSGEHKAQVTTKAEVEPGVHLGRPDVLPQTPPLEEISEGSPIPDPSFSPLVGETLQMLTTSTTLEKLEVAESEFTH
UniProt C7FF04, sequence (whole entry, looked up): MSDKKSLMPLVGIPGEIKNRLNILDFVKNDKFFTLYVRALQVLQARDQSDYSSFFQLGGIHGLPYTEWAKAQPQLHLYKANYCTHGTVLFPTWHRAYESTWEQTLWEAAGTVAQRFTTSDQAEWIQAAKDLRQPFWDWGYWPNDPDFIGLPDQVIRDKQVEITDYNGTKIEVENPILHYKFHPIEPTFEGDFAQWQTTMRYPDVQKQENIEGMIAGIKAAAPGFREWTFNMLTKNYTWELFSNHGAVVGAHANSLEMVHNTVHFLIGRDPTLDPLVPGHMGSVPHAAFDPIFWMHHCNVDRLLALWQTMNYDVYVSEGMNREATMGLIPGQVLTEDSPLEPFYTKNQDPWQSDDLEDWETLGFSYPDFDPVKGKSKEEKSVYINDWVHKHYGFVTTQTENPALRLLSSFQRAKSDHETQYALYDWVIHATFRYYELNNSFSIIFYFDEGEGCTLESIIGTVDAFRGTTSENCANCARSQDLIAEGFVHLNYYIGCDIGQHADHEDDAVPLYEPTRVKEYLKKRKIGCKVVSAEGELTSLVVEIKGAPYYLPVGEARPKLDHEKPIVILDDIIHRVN
UniProt Q9UKP6, sequence (whole entry, looked up): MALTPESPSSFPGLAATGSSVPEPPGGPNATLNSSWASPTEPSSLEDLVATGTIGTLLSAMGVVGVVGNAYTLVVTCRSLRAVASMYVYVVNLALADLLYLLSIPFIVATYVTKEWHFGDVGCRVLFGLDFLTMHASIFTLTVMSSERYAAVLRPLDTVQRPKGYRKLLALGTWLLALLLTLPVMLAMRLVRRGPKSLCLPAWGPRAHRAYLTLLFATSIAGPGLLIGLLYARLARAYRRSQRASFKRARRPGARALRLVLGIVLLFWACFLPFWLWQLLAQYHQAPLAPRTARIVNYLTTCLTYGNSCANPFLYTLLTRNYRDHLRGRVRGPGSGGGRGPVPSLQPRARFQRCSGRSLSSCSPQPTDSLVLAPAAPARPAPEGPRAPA
UniProt P25100, sequence (whole entry, looked up): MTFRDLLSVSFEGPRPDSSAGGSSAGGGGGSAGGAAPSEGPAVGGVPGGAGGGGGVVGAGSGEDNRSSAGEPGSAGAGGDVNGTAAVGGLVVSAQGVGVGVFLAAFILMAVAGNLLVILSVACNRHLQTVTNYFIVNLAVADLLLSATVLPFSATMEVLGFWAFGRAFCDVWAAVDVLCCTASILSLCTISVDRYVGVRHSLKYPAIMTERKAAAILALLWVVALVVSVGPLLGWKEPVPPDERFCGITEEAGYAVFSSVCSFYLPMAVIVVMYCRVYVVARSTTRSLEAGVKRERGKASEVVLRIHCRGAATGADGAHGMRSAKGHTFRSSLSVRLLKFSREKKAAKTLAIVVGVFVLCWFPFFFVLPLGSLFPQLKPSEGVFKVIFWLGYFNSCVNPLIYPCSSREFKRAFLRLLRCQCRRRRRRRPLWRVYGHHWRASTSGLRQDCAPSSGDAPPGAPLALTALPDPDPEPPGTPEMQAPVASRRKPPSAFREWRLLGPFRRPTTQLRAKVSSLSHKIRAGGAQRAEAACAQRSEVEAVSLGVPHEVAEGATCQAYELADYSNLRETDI
UniProt P50750, sequence (whole entry, looked up): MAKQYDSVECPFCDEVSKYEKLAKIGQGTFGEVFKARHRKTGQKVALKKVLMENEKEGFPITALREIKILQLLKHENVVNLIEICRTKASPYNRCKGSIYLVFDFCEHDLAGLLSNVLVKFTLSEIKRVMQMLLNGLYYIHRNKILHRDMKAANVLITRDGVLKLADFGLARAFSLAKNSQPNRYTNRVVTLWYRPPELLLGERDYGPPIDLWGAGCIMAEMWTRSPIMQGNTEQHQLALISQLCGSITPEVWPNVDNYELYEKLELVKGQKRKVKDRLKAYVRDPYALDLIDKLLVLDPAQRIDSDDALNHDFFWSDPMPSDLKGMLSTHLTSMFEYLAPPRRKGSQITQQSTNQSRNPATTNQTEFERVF
UniProt P33535, sequence (whole entry, looked up): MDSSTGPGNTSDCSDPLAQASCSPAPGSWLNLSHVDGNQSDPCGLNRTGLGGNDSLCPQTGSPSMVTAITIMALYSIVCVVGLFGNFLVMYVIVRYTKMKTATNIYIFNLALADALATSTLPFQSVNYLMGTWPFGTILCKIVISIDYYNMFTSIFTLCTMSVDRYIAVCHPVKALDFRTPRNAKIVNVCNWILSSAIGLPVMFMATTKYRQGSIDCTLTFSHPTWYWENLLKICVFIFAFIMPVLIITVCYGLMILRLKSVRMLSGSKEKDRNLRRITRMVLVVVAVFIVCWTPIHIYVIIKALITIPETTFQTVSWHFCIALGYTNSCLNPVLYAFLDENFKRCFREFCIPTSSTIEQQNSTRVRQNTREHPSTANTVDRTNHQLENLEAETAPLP
UniProt Q00526, sequence (whole entry, looked up): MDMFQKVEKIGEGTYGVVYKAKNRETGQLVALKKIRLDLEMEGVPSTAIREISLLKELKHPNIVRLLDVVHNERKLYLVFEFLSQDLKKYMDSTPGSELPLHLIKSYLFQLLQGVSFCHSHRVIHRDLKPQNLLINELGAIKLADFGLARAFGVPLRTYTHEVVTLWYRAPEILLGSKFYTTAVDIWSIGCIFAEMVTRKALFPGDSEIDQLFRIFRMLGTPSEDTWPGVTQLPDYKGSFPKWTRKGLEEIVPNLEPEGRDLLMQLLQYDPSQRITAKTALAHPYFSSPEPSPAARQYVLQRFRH

c1cncc([C@@H]2CCCN2)c1
inhibition (ADRA1D (Homo sapiens, UniProt P25100); ligand displacement; 50 µM): -11.2%

Cn1c(=O)c2[nH]cnc2n(C)c1=O
inhibition (Potassium/sodium hyperpolarization-activated cyclic nucleotide-gated channel 1; ion current, inhibitor; 30 µM): 10.3%

Cn1cc(-c2cc(F)cc(N3CCn4c(cc5c4CCCC5)C3=O)c2CO)cc(Nc2ccc(N3CCN(C4COC4)CC3)cn2)c1=O
inhibition (Cyclin-dependent kinase 9, with cyclin T1 (CDK9, Homo sapiens, UniProt P50750); enzyme activity, inhibitor; 0.1 µM): 6%

O=C1NC(=O)C(c2ccccc2)(c2ccccc2)N1
inhibition (Potassium/sodium hyperpolarization-activated cyclic nucleotide-gated channel 1; ion current, inhibitor; 10 µM): -0.413%

COc1ncccc1-c1cnn2ccc(N3CCN(C(=O)OC(C)C)CC3)nc12
remaining binding (CAMK2G (Homo sapiens, UniProt Q13555); binding, competition with immobilised ligand; 1 µM): 83%

COc1cc(/C=C/C(=O)O)ccc1OCc1cn(CC(=O)Nc2ccc(O)cc2)nn1
inhibition (PPO3 (Agaricus bisporus, UniProt C7FF04); enzyme activity, inhibitor; 40 µM): 10.4%

N#Cc1cc2[nH]c(=S)n(Cc3cccnc3)c(=O)c2cc1Cl
IC50 (4'-phosphopantetheinyl transferase PptT; enzyme activity, inhibitor, FP): 1.94 µM

[2H]c1c([2H])c([C@]2([2H])CCCN2C(=O)C(C)(C)Oc2ccc3cn[nH]c3c2)c([2H])c([2H])c1C([2H])([2H])[2H]
remaining binding (PIP5K1A (Homo sapiens, UniProt Q99755); binding, competition with immobilised ligand; 1 µM): 81%

CC[C@H](C)[C@H](NC(=O)[C@H](Cc1ccccc1)NC(=O)[C@H](CCC(=O)O)NC(=O)[C@H](CCCNC(=N)N)NC(=O)[C@H](C)NC(=O)[C@H](C)NC(=O)[C@H](CCC(N)=O)NC(=O)[C@H](CCC(=O)O)NC(=O)[C@H](CCC(=O)O)NC(=O)[C@H](CC(C)C)NC(=O)[C@H](Cc1ccc(O)cc1)NC(=O)[C@H](CO)NC(=O)[C@H](CO)NC(=O)[C@@H](NC(=O)[C@H](CC(=O)O)NC(=O)[C@H](CO)NC(=O)[C@@H](NC(=O)[C@H](Cc1ccccc1)NC(=O)[C@@H](NC(=O)CNC(=O)[C@H](CCC(=O)O)NC(=O)[C@H](C)NC(=O)CCc1c[nH]cn1)[C@@H](C)O)[C@@H](C)O)C(C)C)C(=O)N[C@@H](C)C(=O)N[C@@H](Cc1c[nH]c2ccccc12)C(=O)N[C@@H](CC(C)C)C(=O)N[C@H](C(=O)N[C@@H](CCCNC(=N)N)C(=O)NCC(=O)N[C@@H](CCCNC(=N)N)C(=O)N[C@@H](CCCCNC(=O)COCCOCCNC(=O)COCCOCCNC(=O)CC[C@H](NC(=O)CCCCCCCCCCCCCCCCC(=O)O)C(=O)O)C(=O)NCC(=O)NCC(=O)N[C@@H](CO)C(=O)N[C@@H](CCCCNc1c(NCCCCCN(O)C(=O)CCC(=O)NCCCCCN(O)C(=O)CCC(=O)NCCCCCN(O)C(C)=O)c(=O)c1=O)C(=O)O)C(C)C
C0 (rat, plasma; intravenous, 20 nmol/kg, single dose): 359 nM

CC(C)CC(=O)OC[C@H]1O[C@@](C#N)(c2ccc3c(N)ncnn23)[C@H](O)[C@@H]1O
inhibition (MAOB (Homo sapiens, UniProt P27338); enzyme activity, inhibitor; 20 µM): 10%

Nc1ccncc1
inhibition (Potassium/sodium hyperpolarization-activated cyclic nucleotide-gated channel 1; ion current, inhibitor; 3 µM): -220%

O=c1c2cc(Cl)ccc2[nH]c(=S)n1Cc1ncc[nH]1
IC50 (4'-phosphopantetheinyl transferase PptT; enzyme activity, inhibitor, FP): 14.3 µM

COc1cc2c(cc1OC)-c1c(OC)c(OC)cc3c1[C@H](C2)N(C)CC3 (racemic)
inhibition (HTR2B (Homo sapiens, UniProt P41595); ligand displacement, radioligand; 10 µM): 87%

C#Cc1n[nH]c2c(-c3cn(C(C)c4ccccn4)c(=O)[nH]c3=O)cc(F)cc12 (centres unmarked)
inhibition (MAP2K1 (Homo sapiens, UniProt Q02750); enzyme activity, inhibitor; 1 µM): 17.2%

Cc1nn(C)cc1-c1nc2c(N3CCN(Cc4ccc(Cl)cc4)CC3)c(Cl)cnc2[nH]1
remaining binding (CDK3 (Homo sapiens, UniProt Q00526); binding, competition with immobilised ligand; 1 µM): 95%

CC(C)NCC(O)COc1cccc2ccccc12 (centres unmarked)
inhibition (Potassium/sodium hyperpolarization-activated cyclic nucleotide-gated channel 1; ion current, inhibitor; 3 µM): -3.42%

CC(C)C[C@H]1C(=O)N2CCC[C@H]2[C@]2(O)O[C@](NC(=O)[C@@H]3C=C4c5cccc6[nH]c(Br)c(c56)C[C@H]4[N+](C)(C)C3)(C(C)C)C(=O)N12
inhibition (Oprm1 (Rattus norvegicus, UniProt P33535); ligand displacement, radioligand; 10 µM): 72%

O=C(Nc1cccnn1)N1CCN([C@@H]2CCOc3cc(C(F)(F)F)ccc32)CC1
inhibition (UTS2R (Homo sapiens, UniProt Q9UKP6); cell-free assay; 20 µM): 26%

CN1CCC[C@H]1c1cccnc1
inhibition (ADRB2 (Homo sapiens, UniProt P07550); ligand displacement; 50 µM): -3.36%

CC(=O)Nc1ccc(O)cc1
inhibition (Potassium/sodium hyperpolarization-activated cyclic nucleotide-gated channel 1; ion current, inhibitor; 30 µM): 19.3%

Cn1cc(-c2cccc(N3CCc4c(sc5c4CC(C)(C)C5)C3=O)c2CO)cc(Nc2ccncn2)c1=O
inhibition (PDGFRA (Homo sapiens, UniProt P16234, D842V); enzyme activity, inhibitor; 1 µM): 0%

Nc1ncnc2c1ncn2[C@@H]1O[C@H](C[C@@H](N)CC[C@H](N)C(=O)O)[C@@H](O)[C@H]1O
inhibition (RNMT (Homo sapiens, UniProt O43148); enzyme activity, inhibitor; 0.1953 µM): 13.9%

Nc1ncc(-c2nc(N3CCOCC3)nc(N3CCOCC3)n2)c(C(F)F)n1
remaining binding (TNNI3K (Homo sapiens, UniProt Q59H18); binding, competition with immobilised ligand; 10 µM): 100%

Repeated from above:
c1cncc([C@@H]2CCCN2)c1
inhibition (ADRA1D (Homo sapiens, UniProt P25100); ligand displacement; 50 µM): -11.2%

O=c1c2cc(Cl)ccc2[nH]c(=S)n1Cc1ncc[nH]1
IC50 (4'-phosphopantetheinyl transferase PptT; enzyme activity, inhibitor, FP): 14.3 µM
